Experimental data from different studies.
Each numbered part is a random draw from the data of one study; scales do not carry over between parts.

Block 1
Target: Histone acetyltransferase KAT6A, winged helix 2, GST fusion (KAT6A, Homo sapiens, UniProt Q92794, residues 85-181)
Technique: protein binding microarray
Molecule type: double-stranded DNA, one strand shown
Medium: in vitro
Tested at: not given
Notes: 8-mer, flanks averaged, mean of 2 arrays, mostly near background
Relative to: not given
Direction: higher = stronger binding
Quantity: E-score
Target sequence (chain): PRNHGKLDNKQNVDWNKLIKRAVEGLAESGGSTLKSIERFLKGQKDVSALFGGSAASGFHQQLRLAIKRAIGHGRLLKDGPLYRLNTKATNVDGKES
CCTGCGAC: 0.0716
CTAACGAC: -0.172
AAACAGCA: 0.103
ACGCCTTC: -0.077
CGTTTGTA: 0.0213
CCTCACTA: 0.00543
ATAGACCA: -0.168
CCGACATC: 0.00609
ACAGCTCC: 0.00312
GCTTGTAA: 0.0814
CAGCCTAG: 0.0799
CGCGCTAC: 0.0212
CAACAGCC: -0.0109
CAACCTCG: 0.0682
ACGCCCGC: 0.092
CCCGGGGA: 0.06
TTTCAAAA: 0.197
ATGACATA: -0.0313
TAAATACA: -0.0165
AACACGGG: -0.038
CACAAGGC: -0.0379
CTTAATTA: 0.134
CGACGTAA: -0.058

Block 2
Target: Centromere-binding protein 1, full length, N-terminal tag (CBF1, Saccharomyces cerevisiae, UniProt P17106, residues 1-351)
Chain of UniProt P17106 (whole entry, looked up): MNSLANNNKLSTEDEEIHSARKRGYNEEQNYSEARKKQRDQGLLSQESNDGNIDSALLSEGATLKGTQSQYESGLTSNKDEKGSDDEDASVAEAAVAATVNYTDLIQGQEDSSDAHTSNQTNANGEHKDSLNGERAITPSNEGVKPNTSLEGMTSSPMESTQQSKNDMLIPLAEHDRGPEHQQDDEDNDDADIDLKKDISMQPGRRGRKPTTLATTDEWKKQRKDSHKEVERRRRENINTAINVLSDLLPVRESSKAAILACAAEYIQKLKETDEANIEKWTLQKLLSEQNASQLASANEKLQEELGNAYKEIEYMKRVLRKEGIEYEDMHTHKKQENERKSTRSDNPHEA
Technique: protein-binding microarray
Molecule type: double-stranded DNA, one strand shown
Medium: in vitro
Tested at: 0.8 µM
Notes: whole 60-bp probe, no competitor
Direction: higher = stronger binding
Quantity: fluorescence intensity
GAAATAACCCTGAGCCACATGTGGTAGATGCCGTAGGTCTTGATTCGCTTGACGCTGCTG: 561 a.u.
CTAGCAATCAACGCGCACGCGAATGGCCAAGAGTTCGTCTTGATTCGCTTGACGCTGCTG: 510 a.u.
TGTACGAAGCTATAAAACGTGTATATAGTAGTTAGGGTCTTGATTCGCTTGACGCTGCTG: 582 a.u.
GAATGAATTGTGTTGCACGTGACTAAACATTGTTAGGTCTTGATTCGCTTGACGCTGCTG: 27200 a.u.
GAAACCGATAATAATAATCACGTTTATATCACGTAGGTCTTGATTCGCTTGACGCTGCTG: 1480 a.u.
CTACTATCGCTGTTATACATGATGTCCCCAAAGTTCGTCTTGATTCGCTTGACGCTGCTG: 540 a.u.
GAATGATGTGCACGTGACATTGCACCCGGGTAATAGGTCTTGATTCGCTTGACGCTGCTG: 29900 a.u.
GAAAATATAATAATACAGGTGATAGAATGCGAATAGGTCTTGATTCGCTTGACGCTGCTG: 690 a.u.
GAATACGTTCTTTTTCAGGTGATGGTGCCATTTTAGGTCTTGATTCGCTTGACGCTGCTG: 549 a.u.
CTAGGAGCTTTAAAACATCAGGATAGTGTGCAATTCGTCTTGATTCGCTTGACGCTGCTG: 537 a.u.
CTACCCTTATCTGGTCACGTGAATTAAACTTCGTTCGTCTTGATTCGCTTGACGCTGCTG: 27800 a.u.
GAAACGTTTCTTTTTCACGTGCTAAGTGATCTATAGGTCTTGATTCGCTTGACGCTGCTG: 6990 a.u.
CTAAAAAGACTTAACCATGTGGCAGCCGTTGTCTTCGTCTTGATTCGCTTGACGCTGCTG: 564 a.u.
GAATTATCTGTATGTCACGAGGCATTTTTCATTTAGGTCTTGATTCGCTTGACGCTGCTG: 2030 a.u.
CTAACATACAACCATCACGTAGAGGAAATTCTTTTCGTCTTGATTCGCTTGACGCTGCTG: 588 a.u.
CTAGCACTATCATCATGCGTGATTGATATTTAATTCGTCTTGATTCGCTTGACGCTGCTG: 818 a.u.
CTAAAACAGAGCAGTCATATGATCAAAATACAGTTCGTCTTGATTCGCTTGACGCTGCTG: 2290 a.u.
GAAGAATACGAAAAACACGAGGTATACCAAGGCTAGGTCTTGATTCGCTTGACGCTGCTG: 555 a.u.
GAATTTTCAATAACGCACATGGTGGTGTACGGGTAGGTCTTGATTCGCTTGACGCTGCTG: 615 a.u.
CCTAACTACTATATCCACCTGCTATAGCTTCGTACAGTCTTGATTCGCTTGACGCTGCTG: 540 a.u.
GAACCTTGGGAAACGCACGCGCGAAGGAGGAAATAGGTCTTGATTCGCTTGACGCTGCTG: 573 a.u.

Block 3
Target: Prothrombin, mature alpha-thrombin (F2, Homo sapiens, UniProt P00734)
Technique: aptamer microarray, sandwich
Molecule type: DNA with 2'F-ANA
Medium: in vitro
Tested at: 200 nM
Notes: whole 15-mer aptamer, many near background
Added: Cy3 exosite-II aptamer, 400 nM
Direction: higher = stronger binding
Quantity: mean fluorescence intensity
Sequence: GGTTGGTGTGGTTGG
2'F-ANA at 1 2 3 6 7 9 11 13: 122 a.u.
2'F-ANA at 1 3 5 6 9 11: 52 a.u.
2'F-ANA at 2 4 5 6 7 8 9 11 13 14 15: 50.6 a.u.
2'F-ANA at 1 2 3 4 6 7 10 11 12 14: 52.3 a.u.
2'F-ANA at 1 4 6 7 9 12 14 15: 85.6 a.u.
2'F-ANA at 1 2 3 10 11 13 14: 50.5 a.u.
2'F-ANA at 2 4 5 6 7 9 10 11 14 15: 46.5 a.u.
2'F-ANA at 1 3 6 7 9 11 12 13 14 15: 92.9 a.u.
2'F-ANA at 2 9 10 14: 89 a.u.
2'F-ANA at 1 4 8 9 11 14: 49.7 a.u.
2'F-ANA at 2 6 8 9 14 15: 115 a.u.
2'F-ANA at 1 3 4 5 8 9 10 11 14 15: 51.2 a.u.
2'F-ANA at 3 5 6 7 10 12 13: 56.5 a.u.
2'F-ANA at 2 6 9 10 13 14: 174 a.u.
2'F-ANA at 1 3 7 8 10 13: 76.7 a.u.
2'F-ANA at 1 2 3 6 7 10 11 12 14 15: 52.9 a.u.
2'F-ANA at 1 2 3 5 6 7 9 11 12: 99.9 a.u.
2'F-ANA at 2 3 4 5 7 11: 146 a.u.
2'F-ANA at 1 4 8 11 14: 50.9 a.u.
2'F-ANA at 1 2 3 4 6 7 9 12 14 15: 67.7 a.u.
2'F-ANA at 1 4 6 7 9 10 12 14: 65.3 a.u.
2'F-ANA at 2 3 5 11 13 15: 70.2 a.u.
2'F-ANA at 1 2 5 10 11 12 14 15: 50 a.u.
2'F-ANA at 1 2 3 6 8 9 12 15: 421 a.u.
2'F-ANA at 3 4 6 9 10 13 15: 200 a.u.

Block 4
Target: Sal-like protein 4, full length isoform B (SALL4, Homo sapiens, UniProt Q9UJQ4-2, residues 1-616)
Technique: universal PBM
Molecule type: double-stranded DNA, one strand shown
Medium: in vitro
Tested at: not given
Notes: 8-mer, flanks averaged, mean of replicates
Direction: higher = stronger binding
Quantity: E-score
Residues (chain): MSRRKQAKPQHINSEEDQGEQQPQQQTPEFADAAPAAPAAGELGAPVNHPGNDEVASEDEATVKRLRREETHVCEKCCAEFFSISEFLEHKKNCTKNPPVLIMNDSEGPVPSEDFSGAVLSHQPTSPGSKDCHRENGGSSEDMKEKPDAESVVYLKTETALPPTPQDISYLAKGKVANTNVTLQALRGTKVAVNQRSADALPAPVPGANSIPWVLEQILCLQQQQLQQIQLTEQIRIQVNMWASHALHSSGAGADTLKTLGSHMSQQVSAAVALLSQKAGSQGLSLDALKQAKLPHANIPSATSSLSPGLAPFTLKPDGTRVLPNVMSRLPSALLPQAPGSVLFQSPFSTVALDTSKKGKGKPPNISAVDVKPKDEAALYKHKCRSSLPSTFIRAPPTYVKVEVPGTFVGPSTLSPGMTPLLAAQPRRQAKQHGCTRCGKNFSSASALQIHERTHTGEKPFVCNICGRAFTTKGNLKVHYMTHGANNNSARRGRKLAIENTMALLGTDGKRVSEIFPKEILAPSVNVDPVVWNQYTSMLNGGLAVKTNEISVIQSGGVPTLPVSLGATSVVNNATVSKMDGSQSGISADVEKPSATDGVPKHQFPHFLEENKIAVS
CTTTAGAA: 0.231
ATTCGAAC: 0.152
ACCCTGAT: -0.0136
TTAAATAA: 0.327
CAGATGGC: -0.117
AGAATTAC: 0.15
AGAAGATC: -0.0623
ACCTCGAT: -0.0787
CTAATAAG: 0.222
CATCACGC: -0.0949
AAAATGGC: 0.202
ATCGTCAT: 0.256
ACGGGTTG: -0.194
ACCGGTTC: -0.308
AGGCTCTC: -0.192
AGTTTAAT: 0.257
GCCCGGAA: -0.297
CGGGGCAC: -0.228
GCCCCAAA: -0.175
CATGTCGC: -0.0664
CACCGAAC: -0.138
ACTTGTCG: -0.088
CAGACCAC: -0.117
CTCTACTC: -0.0281

Block 5
Target: RNA binding protein fox-1 homolog 2, RRM domain, GST-SBP tag (RBFOX2, Homo sapiens, UniProt O43251-10, residues 100-194)
Technique: RNA Bind-n-Seq
Molecule type: RNA
Medium: in vitro
Tested at: 365 nM
Notes: natural RNA segment, single round, ends assumed
Relative to: no-protein control
Direction: higher = stronger binding
Quantity: RBNS enrichment (R)
Residues (chain): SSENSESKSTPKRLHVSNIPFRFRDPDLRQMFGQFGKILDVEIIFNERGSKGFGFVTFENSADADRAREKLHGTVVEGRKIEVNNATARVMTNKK
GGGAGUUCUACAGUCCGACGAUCCUGAGUCACCUUCUAUCUAUACUUUGCUUAAAAGCUAUCCCAGAUACUCCCCCUUGAGGAGCUCAUGCCCUUCCUUCCUCUUUAUUCGAGCAUACUGGCAAUGCAUUGGAUGGAAUUCUCGGGUGCCAA: 0.926
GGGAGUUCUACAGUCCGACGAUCCUGUUGAGGUCCUGCCUUGUGCUUUCCUAGUGGAAGCCGUCCUUUGCCCCCGUUGAUGACUUGAGCCCUUGCCAAACAAACACCGAUGAGUGAAGUGGCUGCAACUUGGCUGGAAUUCUCGGGUGCCAA: 0.356
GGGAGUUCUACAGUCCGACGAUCACACUGAAUUGUAUUUAAUCAGCGUGUAUUCCAUUUGCAUUGAAGCAUUAAAGAUUAUUUUCCUUAAAUCUCUUCAAGGCCUUCUUAUUGCUGUUAGAAUAGUGUUGUAUUGGAAUUCUCGGGUGCCAA: 0.288
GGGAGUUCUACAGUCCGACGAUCUUACCAAAGGAGUCUUCAGCCCUAUAAAAGGAUUCCUCUAUAGUGUAUUUCUCUAGUGUAUUUAGUGUGUCGUCAAAAUUUUGAUUUAUACAGAGCUUUCAAGAACACACUGGAAUUCUCGGGUGCCAA: 0.309
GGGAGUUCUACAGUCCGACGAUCGACUGGGAGGGCCCACUUCAGGGUUCUCCUCUCCCCUCUAAGGCCGAAGAAGGGUCCUUCCCUCUCCCCAAGACUUGGUGUCCUUUCCCUCCACUCCUUCCUGCCACCUGUGGAAUUCUCGGGUGCCAA: 0.364
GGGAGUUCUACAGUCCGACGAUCAAAGAGGAAAGCUUACUUGUUUAAUGGCAGCCACAUGCACGAAGAUGCUAAGAAGAAAAAGAAUUCCAAAUCCUCAACUUUUGAGGUUUCGGCUCUCCAAUUUAACUCUUUGGAAUUCUCGGGUGCCAA: 1.76
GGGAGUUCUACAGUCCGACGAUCGCCCACCAUGUGGCUGCAGGCCAAGCUCUUCAUUGCUGACCAUGAAGAGACCUAGUUACCUGCCAAGGGAUUCCCCUUCCCUCCUCCUCAGGGUGGGGUGAACAAGGCUCUGGAAUUCUCGGGUGCCAA: 0.407
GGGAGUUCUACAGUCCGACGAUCAAGGCCAGGGAAGAAGGUAUGAAGAAAAGGUGAUUGAGAACUAAUUACCAAGGGAAACUGGCAAGACAACUGGAUGCGUGUAAUCCGAAUGGUCAUAAUGAGACAACAGCUGGAAUUCUCGGGUGCCAA: 1.92
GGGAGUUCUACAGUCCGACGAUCGCAUUUGCAUAGCAGGGAUUGUGCCUGUAUCUACUGUGUCCAUUUUGUUUUUUCGGAUGUUUUCUGGUUUUGUUUCCUUGGAAAUAAAUUAAUAUAUUGUUUUCCACCUUUGGAAUUCUCGGGUGCCAA: 29.4
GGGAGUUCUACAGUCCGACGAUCCAUUCAGGGUCAGUAGGGAGGACAAAAUAGGGGGCUCUACGUGCAGUGAGGAAAGGCUGCUGUCAUGGUGUGGCCCUGCCUCACUGUCAAUAUCUGUUUUCUCUGGAGAGUGGAAUUCUCGGGUGCCAA: 0.456
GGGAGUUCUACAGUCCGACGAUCUCCUCUUCUGGAAUGUUGCUGACCCAGGCCGUGGACUUGGCUGAGCACUGUUAGACACACACAGACCUGCAGGCUGUUUUAGAAUGUUUUGAUCUCUUUGGGGAAUCUGGUGGAAUUCUCGGGUGCCAA: 1.57
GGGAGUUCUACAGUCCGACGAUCUCAAGUCGCAUAUGCUGUACUGUUCCUCCUGCAAAUGUGGGGAAAGAAGAGGGAGAUACUAGAGGAACUGAGGCUCCACCCAUUCAUUCAGUUGCUCUAAGCACCAGAGGUGGAAUUCUCGGGUGCCAA: 0.457

For quick reference, copied from above (block 4):
TTAAATAA: 0.327
CAGATGGC: -0.117
AGAATTAC: 0.15
AGAAGATC: -0.0623
ACCTCGAT: -0.0787
CTAATAAG: 0.222
CATCACGC: -0.0949
AAAATGGC: 0.202
ATCGTCAT: 0.256
ACGGGTTG: -0.194
ACCGGTTC: -0.308
AGGCTCTC: -0.192
AGTTTAAT: 0.257
GCCCGGAA: -0.297
CGGGGCAC: -0.228
GCCCCAAA: -0.175
CATGTCGC: -0.0664
